{"data": "Results from different studies", "note": "Values joined by “and” are separate records of one study, mostly repeats; a detail may differ. Numbers after ± are the reported error."}
{"SMILES": "CC(=O)c1nn(-c2ccc(Cl)cc2)/c(=N/N=C(\\C)c2ccc(NC(=O)c3ccc(C)cc3)cc2)s1", "cell line": "MCF7", "setting": "0.625 µM", "viability": "26.5%"}
{"SMILES": "Cc1cccc(-c2[nH]c(CNc3ccccc3F)nc2-c2ccc3ncnn3c2)n1", "cell line": "MM1.S pomalidomide-resistant", "assay": "XTT", "setting": "1.5 µM", "viability": "52% and 37% and 46%"}
{"SMILES": "COc1ccc(CCc2nc3cc(-c4c(C)noc4C)ccc3n2C[C@H](C)N2CCOCC2)cc1Cl", "cell line": "HBL-1", "setting": "1 µM, 120 h", "viability": "93.9%"}
{"SMILES": "O=P(O)(O)C(O)(Cn1ccnc1)P(=O)(O)O", "cell line": "MDA-MB-231", "assay": "AlamarBlue", "setting": "3.8 µM, 72 h", "how to read": "relative to: control", "viability": "97 ± 6%"}
{"SMILES": "Nc1cccc2c1CN(C1CCC(=O)NC1=O)C2=O (stereo not shown)", "cell line": "bone marrow CD138+ myeloma cells", "assay": "XTT", "setting": "1.8 µM, mean of three patients", "viability": "8%"}
{"SMILES": "NC(=O)c1cccc(N)c1", "cell line": "HBL-1", "setting": "0.5 µM, 120 h", "viability": "118%"}
{"SMILES": "COc1ccc(-n2nc(C(C)=O)s/c2=N\\N=C(/C)c2ccc(NC(=O)c3ccc(Cl)cc3)cc2)cc1", "cell line": "MCF7", "setting": "0.625 µM", "viability": "11.8%"}
{"SMILES": "Nc1ccccc1NC(=O)CCCCCCC(=O)Nc1ccccc1", "cell line": "HBL-1", "setting": "0.1 µM, 120 h", "viability": "101%"}
{"SMILES": "COc1cc2ncnc(Nc3ccc(Oc4ccccc4)c(C)c3C)c2cc1OC", "cell line": "NCI-H2087 (BRAF L597V)", "assay": "resazurin", "setting": "3 µM, 72 h, together with: trametinib", "how to read": "relative to: DMSO", "viability": "81.9%"}
{"SMILES": "Oc1ccc(/C=C/c2cc(O)cc(O)c2)cc1", "cell line": "HBL-1", "setting": "1 µM, 120 h", "viability": "94.5%"}
{"SMILES": "Nc1cccc2c1C(=O)N(C1CCC(=O)NC1=O)C2=O (stereo not shown)", "cell line": "MM1.S", "assay": "XTT", "setting": "1.5 µM", "how to read": "relative to: untreated", "viability": "17%"}
{"SMILES": "COc1ccc(-n2nc(C(C)=O)s/c2=N\\N=C(/C)c2ccc(NC(=O)c3ccc(C)cc3)cc2)cc1", "cell line": "HepG2", "setting": "0.312 µM", "viability": "21.2%"}
{"SMILES": "CN1C(=O)C2(NN=C(c3ccccc3)S2)c2cc(Br)ccc21 (stereo not shown)", "cell line": "TNBC cell lines", "assay": "MTT", "setting": "10 µM", "viability": "active"}
{"SMILES": "COc1cc2ncnc(Nc3ccc(Oc4ccccc4)cc3C)c2cc1OC", "cell line": "NCI-H2087 (BRAF L597V)", "assay": "resazurin", "setting": "0.1 µM, 72 h, together with: trametinib 0 nM", "viability": "101%"}
{"SMILES": "Cc1cn([C@@H]2O[C@H](CO)[C@@H](O)[C@H]2O)c(=O)nc1N", "cell line": "HBL-1", "setting": "0.5 µM, 120 h", "viability": "111%"}
{"SMILES": "Nc1ncnc2c1ncn2[C@@H]1O[C@H](CO)[C@@H](O)[C@H]1O", "cell line": "activated human T cells", "setting": "100 µM, 72 h", "how to read": "higher = more viable cells", "viability": "58.4 a.u. and 58.6 a.u. and 44.2 a.u."}
{"note": "Excerpt of the above:"}
{"SMILES": "CN1C(=O)C2(NN=C(c3ccccc3)S2)c2cc(Br)ccc21 (stereo not shown)", "cell line": "TNBC cell lines", "assay": "MTT", "setting": "10 µM", "viability": "active"}
{"SMILES": "Nc1ncnc2c1ncn2[C@@H]1O[C@H](CO)[C@@H](O)[C@H]1O", "cell line": "activated human T cells", "setting": "100 µM, 72 h", "how to read": "higher = more viable cells", "viability": "58.4 a.u. and 58.6 a.u. and 44.2 a.u."}
